Experimental data collected from several papers.
Compare with care: the assays were run in different laboratories. Several values in a cell are separate wells, animals, samples, runs or records. Numbers after ± are the reported error.
ZBTB11/CRBN: ZBTB11/CRBN (Homo sapiens, UniProt O95625+Q96SW2)
UniProt O95625, sequence (whole entry, looked up): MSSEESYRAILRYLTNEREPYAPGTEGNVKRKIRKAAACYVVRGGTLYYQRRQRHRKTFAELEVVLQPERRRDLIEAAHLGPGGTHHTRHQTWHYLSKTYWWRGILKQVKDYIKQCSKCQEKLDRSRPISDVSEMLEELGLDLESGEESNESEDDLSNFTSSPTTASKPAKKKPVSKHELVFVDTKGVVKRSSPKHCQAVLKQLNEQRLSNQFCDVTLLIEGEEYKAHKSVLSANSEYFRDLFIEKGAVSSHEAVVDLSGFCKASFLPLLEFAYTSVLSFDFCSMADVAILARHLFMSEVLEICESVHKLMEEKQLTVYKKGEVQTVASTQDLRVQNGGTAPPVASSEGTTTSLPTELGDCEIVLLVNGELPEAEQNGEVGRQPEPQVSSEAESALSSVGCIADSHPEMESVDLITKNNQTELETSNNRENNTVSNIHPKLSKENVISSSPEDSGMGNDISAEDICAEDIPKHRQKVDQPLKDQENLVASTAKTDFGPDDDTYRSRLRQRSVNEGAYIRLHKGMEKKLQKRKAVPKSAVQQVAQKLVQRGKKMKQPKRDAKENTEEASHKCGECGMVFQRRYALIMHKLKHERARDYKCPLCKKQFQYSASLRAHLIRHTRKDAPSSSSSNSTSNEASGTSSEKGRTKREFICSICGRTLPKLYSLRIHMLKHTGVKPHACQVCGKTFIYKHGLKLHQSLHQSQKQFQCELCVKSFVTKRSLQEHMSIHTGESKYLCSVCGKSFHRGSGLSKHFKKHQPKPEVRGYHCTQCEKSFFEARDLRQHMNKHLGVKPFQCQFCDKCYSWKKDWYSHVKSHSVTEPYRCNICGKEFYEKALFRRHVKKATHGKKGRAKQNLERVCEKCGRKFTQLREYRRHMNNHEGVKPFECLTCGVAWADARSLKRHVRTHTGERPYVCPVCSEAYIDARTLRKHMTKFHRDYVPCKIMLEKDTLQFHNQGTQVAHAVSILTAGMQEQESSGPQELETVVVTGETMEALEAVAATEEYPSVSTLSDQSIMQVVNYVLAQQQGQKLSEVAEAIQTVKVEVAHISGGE
UniProt Q96SW2, sequence (whole entry, looked up): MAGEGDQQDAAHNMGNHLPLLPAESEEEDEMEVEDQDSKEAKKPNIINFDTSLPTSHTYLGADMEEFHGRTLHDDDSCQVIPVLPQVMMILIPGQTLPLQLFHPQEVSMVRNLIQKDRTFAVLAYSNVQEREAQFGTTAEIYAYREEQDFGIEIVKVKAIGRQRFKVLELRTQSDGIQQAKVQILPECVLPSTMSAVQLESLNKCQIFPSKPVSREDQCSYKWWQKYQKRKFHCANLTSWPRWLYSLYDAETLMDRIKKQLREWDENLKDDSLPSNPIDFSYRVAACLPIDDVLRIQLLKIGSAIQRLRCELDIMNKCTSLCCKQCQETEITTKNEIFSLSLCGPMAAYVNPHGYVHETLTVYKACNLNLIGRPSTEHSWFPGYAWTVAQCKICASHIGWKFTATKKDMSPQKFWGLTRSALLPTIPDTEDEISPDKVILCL
PHO85: Negative regulator of the PHO system (PHO85, Candida albicans, UniProt Q9HGY5)
UniProt Q9HGY5, sequence (whole entry, looked up): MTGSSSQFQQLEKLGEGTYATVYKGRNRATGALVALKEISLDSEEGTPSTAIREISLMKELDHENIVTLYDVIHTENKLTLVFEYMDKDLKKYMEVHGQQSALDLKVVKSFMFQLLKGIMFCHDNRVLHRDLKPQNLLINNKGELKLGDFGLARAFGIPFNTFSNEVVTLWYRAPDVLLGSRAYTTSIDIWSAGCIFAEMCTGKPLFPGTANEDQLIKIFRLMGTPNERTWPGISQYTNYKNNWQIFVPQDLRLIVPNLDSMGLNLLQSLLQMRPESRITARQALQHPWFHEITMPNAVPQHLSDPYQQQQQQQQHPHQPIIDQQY
TOP2A: DNA topoisomerase 2-alpha (TOP2A, Homo sapiens, UniProt P11388)
UniProt O76090, sequence (whole entry, unmodified, looked up): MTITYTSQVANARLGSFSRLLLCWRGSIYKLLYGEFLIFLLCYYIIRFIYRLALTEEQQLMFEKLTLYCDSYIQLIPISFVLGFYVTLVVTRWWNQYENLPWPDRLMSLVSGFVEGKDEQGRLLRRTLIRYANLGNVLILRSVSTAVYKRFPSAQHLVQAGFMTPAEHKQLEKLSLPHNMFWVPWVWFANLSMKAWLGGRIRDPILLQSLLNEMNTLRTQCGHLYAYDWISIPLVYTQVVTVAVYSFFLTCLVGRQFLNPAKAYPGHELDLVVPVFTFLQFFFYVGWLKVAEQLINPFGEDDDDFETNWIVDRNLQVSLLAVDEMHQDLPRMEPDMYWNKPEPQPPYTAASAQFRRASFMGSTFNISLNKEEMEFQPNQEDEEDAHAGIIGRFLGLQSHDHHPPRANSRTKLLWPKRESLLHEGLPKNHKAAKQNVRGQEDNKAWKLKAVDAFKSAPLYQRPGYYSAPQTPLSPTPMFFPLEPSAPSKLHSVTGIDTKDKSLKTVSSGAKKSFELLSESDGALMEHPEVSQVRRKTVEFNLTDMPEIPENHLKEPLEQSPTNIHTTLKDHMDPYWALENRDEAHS
UniProt P51575, sequence (whole entry, unmodified, looked up): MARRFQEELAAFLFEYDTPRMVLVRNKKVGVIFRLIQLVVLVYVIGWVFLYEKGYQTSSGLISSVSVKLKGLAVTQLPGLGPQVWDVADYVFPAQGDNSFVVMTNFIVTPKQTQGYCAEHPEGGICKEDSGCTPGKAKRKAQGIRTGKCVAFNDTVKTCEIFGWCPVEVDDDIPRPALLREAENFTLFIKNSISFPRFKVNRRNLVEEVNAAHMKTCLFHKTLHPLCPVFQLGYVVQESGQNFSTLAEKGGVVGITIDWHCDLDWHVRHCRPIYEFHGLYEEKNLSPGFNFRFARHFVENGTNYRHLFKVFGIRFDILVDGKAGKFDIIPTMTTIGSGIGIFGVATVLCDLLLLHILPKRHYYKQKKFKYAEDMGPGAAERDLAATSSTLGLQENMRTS
UniProt P11388, sequence (whole entry, looked up): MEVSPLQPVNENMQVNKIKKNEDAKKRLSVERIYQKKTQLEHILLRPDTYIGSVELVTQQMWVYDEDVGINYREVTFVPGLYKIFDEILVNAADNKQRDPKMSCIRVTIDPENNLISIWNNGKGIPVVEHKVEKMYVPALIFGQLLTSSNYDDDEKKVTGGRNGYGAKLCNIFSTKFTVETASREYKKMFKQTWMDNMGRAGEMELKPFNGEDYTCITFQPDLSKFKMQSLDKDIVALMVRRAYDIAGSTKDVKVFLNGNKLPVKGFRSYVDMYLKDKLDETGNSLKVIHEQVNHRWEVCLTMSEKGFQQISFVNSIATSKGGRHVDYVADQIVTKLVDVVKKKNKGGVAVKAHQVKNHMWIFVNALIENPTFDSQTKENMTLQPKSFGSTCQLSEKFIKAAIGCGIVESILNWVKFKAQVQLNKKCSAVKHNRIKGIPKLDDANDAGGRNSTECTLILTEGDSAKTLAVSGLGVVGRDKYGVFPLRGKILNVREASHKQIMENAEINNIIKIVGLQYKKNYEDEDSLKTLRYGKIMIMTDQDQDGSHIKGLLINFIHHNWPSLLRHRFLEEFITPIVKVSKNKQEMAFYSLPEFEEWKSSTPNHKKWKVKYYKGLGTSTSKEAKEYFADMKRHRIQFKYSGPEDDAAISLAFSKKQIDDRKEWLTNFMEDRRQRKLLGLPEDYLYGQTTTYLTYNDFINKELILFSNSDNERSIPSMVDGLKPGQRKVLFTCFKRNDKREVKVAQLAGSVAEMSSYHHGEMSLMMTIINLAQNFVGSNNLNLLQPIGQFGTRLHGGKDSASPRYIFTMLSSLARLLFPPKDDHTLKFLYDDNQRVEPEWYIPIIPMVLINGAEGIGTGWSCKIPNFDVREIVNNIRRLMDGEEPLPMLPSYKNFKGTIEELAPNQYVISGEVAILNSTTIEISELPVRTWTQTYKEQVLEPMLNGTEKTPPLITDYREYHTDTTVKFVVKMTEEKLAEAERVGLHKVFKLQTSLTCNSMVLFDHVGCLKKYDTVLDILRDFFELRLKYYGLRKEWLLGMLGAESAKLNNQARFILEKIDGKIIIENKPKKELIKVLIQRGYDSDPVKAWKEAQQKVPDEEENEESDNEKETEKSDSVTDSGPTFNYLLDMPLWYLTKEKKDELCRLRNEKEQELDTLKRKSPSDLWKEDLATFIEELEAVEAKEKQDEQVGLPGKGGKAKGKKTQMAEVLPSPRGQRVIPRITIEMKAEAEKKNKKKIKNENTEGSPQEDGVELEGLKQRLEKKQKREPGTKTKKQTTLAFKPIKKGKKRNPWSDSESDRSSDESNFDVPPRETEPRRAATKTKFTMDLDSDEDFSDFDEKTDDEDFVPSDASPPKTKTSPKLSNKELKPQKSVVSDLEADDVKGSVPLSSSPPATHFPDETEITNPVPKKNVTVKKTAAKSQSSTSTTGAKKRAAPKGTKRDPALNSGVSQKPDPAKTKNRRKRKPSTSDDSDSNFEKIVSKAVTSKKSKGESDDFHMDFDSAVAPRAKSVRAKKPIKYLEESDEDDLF
UniProt O00482, sequence (whole entry, looked up): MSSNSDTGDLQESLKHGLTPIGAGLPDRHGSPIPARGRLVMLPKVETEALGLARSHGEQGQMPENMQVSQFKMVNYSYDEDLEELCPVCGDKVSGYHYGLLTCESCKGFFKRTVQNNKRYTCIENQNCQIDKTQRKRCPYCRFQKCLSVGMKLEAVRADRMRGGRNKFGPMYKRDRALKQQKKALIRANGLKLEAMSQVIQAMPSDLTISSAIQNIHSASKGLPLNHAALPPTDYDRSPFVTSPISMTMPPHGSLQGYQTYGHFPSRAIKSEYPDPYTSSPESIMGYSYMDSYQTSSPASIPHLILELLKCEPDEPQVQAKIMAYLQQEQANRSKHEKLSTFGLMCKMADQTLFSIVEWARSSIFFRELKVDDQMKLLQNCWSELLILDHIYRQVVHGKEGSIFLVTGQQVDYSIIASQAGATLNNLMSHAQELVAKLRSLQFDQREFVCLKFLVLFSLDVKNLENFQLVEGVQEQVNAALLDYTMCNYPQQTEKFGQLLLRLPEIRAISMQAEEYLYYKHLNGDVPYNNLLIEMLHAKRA

COc1cccc2c(Nc3ccc4[nH]c(C(=O)N/N=C/c5ccc(SC)cc5)cc4c3)cc(C)nc12 gave an activation of 1.23 fold (Nuclear receptor subfamily 5 group A member 2 (NR5A2, Homo sapiens, UniProt O00482); reporter gene, Gal4 hybrid reporter; 3 µM; reference: vehicle).
For O=C(NC1CCC1)c1ccc2nc(-c3cccc(NS(=O)(=O)NCCN4CCCCC4)c3)cn2c1, the remaining activity was 100% (Mast/stem cell growth factor receptor Kit (KIT, Homo sapiens, UniProt P10721, A829P); enzyme activity; 10 µM).
For CC(=O)N[C@H](C(=O)N1C[C@H](O)C[C@H]1C(=O)NCc1ccc(-c2scnc2C)cc1)C(C)(C)SCCCCCCNC(=O)C[C@@H]1N=C(c2ccc(Cl)cc2)c2c(sc(C)c2C)-n2c(C)nnc21, the ΔG was -10.18 ± 0.05 kcal/mol (Bromodomain-containing protein 3, BD1 (BRD3, Homo sapiens, UniProt Q15059); binding, ITC; 25 °C, compound in cell, protein in syringe).
COc1cccc2c(-c3ccc(CN4CCOCC4)cc3)cc(C(=O)Nc3ccc(C(=O)O)cc3)nc12 — result for IC50: “inactive” (Retinoic acid receptor gamma (RARG, Homo sapiens, UniProt P13631); reporter gene, antagonist; up to 3300 nM, with: ATRA 8 nM (EC80)).
N[C@@H](Cc1ccc(O)cc1)C(=O)Nc1ccc2ccccc2c1 gave a Km of 10 µM (rat neuron-specific aminopeptidase; substrate).
For CCC(C)(NCCc1ccc(OC)c(Cl)c1)c1cccc(NC2=CC(=O)N(C3CCC(=O)NC3=O)C2=O)c1 (stereo not drawn), the Dmax was 42% (ZBTB11/CRBN; protein degradation, degrader, HiBiT luminescence; MOLT-4).
CN1CCN(c2ccc([N+](=O)[O-])cc2NC(=O)c2nn(C)c3ccccc23)CC1 has a binding response of 27% (WD repeat-containing protein 5 (WDR5, Homo sapiens, UniProt P61964); surface plasmon resonance; concentration not given).
C=CC(=O)N1CCC(COCC(=O)N2CCN(c3nc(-c4cnc(N)nc4C(F)F)nc(N4CCOC[C@@H]4C)n3)CC2)CC1 has a remaining binding of 91% (Cyclin-G-associated kinase (GAK, Homo sapiens, UniProt O14976); KINOMEscan; 1 µM).
For CCC(C)(NCCc1ccccc1)c1cccc(NC2=CC(=O)N(C3CCC(=O)NC3=O)C2=O)c1 (stereo not drawn), the Dmax was 33% (ZBTB11/CRBN; protein degradation, degrader, HiBiT luminescence; MOLT-4).
For N#Cc1ccc2c(-c3ccncc3)c(-c3ccc(F)cc3)nn2c1, “log2 fold change” read 0.35 (PHO85; kinase binding, competitor, MIB/MS competition, item: PHO85; Candida albicans cell lysate; 1 µM; reference: DMSO).
NC(=O)c1ccc[n+]([C@@H]2O[C@H](COP(=O)(O)O)[C@@H](O)[C@H]2O)c1 gave a Km of 37600 ± 3600 µM (ALDH-137; enzyme activity, cofactor, NMNH formation; apparent Km, with: hexanal).
O=c1cc(-c2ccc([N+](=O)[O-])cc2)[nH]c2c(-c3ccc(Cl)cc3)c(Cc3ccccc3)nn12 — result for “melting temperature shift”: 4.5 °C (cAMP-dependent protein kinase type I-alpha regulatory subunit (PRKAR1A, Homo sapiens, UniProt P10644); thermal stability, binder, thermal proteome profiling; RD, cell lysate; 50 µM, 0.5% DMSO; reference: DMSO vehicle).
With Nc1ccc(C(=O)O)cc1 the current density was -6.43 pA/pF and -1.36 pA/pF and -3.82 pA/pF and -5.67 pA/pF and -5.38 pA/pF and -4.78 pA/pF and -1.65 pA/pF (BEST1, with wild-type BEST1 (Homo sapiens, UniProt O76090, A243T); whole-cell patch clamp; HEK293 co-expressing WT and A243T mutant; concentration not given, membrane potential -20 mV).
Nc1ncnc2c1ncn2[C@@H]1O[C@H](COP(=O)(O)OP(=O)(O)O)[C@@H](O)[C@H]1O has a ΔH of -2.02 kcal/mol (GUK1 (Homo sapiens, UniProt Q16774); binding, isothermal titration calorimetry; molar ratio 0.6998, fitted curve).
For CC1=C(/C=C/C(C)=C/C=C/C(C)=C/C=C/C=C(C)/C=C/C=C(C)/C=C/C2=C(C)CCCC2(C)C)C(C)(C)CCC1, “Stern-Volmer quenching constant” read 11400 ± 300 L/mol (Beta-lactoglobulin (LGB, Bos taurus, UniProt P02754); fluorescence quenching; 303 K).
The kcat of CC(=O)Oc1ccc([N+](=O)[O-])cc1 is reported as 134 ± 10.4 s⁻¹ (Methylesterase 9 (MES9, Arabidopsis thaliana, UniProt O23171); substrate, p-nitrophenyl ester).
For Oc1ccccc1-c1n[nH]cc1-c1ccnc2ccccc12, “log2 fold change” read 0.11 (PHO85; kinase binding, MIB/MS competition; Candida albicans lysate; 1 µM; reference: DMSO, negative = stronger binding).
O=C(O)c1ccc(Nc2ncc3c(n2)-c2ccc(Cl)cc2C(c2c(F)cccc2F)=NC3)cc1 has a remaining activity of 112% (PKCµ(h); kinase activity; 1 µM).
COc1cc(-c2cncc3c2CN(C)Cc2cc(N4CCNCC4)ccc2-3)cc(OC)c1OC has a remaining activity of 105% (Serine/threonine-protein kinase PAK 3 (PAK3, Homo sapiens, UniProt O75914); kinase activity; 1 µM, human enzyme, with: ATP 10 µM; reference: DMSO control).
For O=c1nc(SCc2cc(F)cc(C(F)(F)F)c2)nc(SCc2ccc3sccc3c2)[nH]1, “ATP hydrolysis rate” read 0.871 µM/min and 0.218 µM/min (TOP2A; ATPase activity; 15.6 µM, with: ATP 0.25 mM).
Cc1cc2nc3c(=O)[nH]c(=O)nc-3n(C[C@H](O)[C@H](O)[C@H](O)COP(=O)(O)O)c2cc1C has a kon of 271000 M⁻¹ s⁻¹ (NADH-dependent FMN reductase SfnF (sfnF, Pseudomonas fluorescens, UniProt Q3K9A2); surface plasmon resonance).
For Cc1cc(C)c2nc(C)cc(NCCc3ccccc3)c2c1, “outward current density” read 3.3 ± 2.9 pA/pF (CatSper channel complex (Homo sapiens, UniProt Q7RTX7+Q86XQ3+Q8NEC5+Q96P56); ion current, whole-cell patch clamp; human sperm; 10 µM, at +80 mV).
NCCCS(=O)(=O)O — result for “normalised MST signal”: -0.00436 (Sodium- and chloride-dependent taurine transporter (SLC6A6, Homo sapiens, UniProt P31641, G62A); binding, microscale thermophoresis; 62.5 µM, room temperature, with: 50 nM labelled protein; higher = more binding).
With Nc1ncnc2c1ncn2[C@@H]1O[C@H](COP(=O)(O)OP(=O)(O)OP(=O)(O)O)[C@@H](O)[C@H]1O the Km was 2100 ± 100 µM (Hexokinase-3 (HK3, Homo sapiens, UniProt P52790, E254A/R267A); substrate; mutant E254A/R267A, with: glucose 0.5 mM).
Under “koff fast phase”, CC[C@H](C)[C@@H]1NC(=O)[C@H](C)NC(=O)[C@H]([C@@H](C)CC)NC(=O)[C@H](CCC(N)=O)NC(=O)[C@H](C)NC(=O)[C@H](CCCNC(=N)N)NC(=O)[C@H](C(C)C)NC(=O)[C@H](CC(C)C)NC(=O)[C@H](CCC(=O)O)NC(=O)[C@H](CCCNC(=N)N)NC(=O)CNC(=O)[C@@H](NC(=O)[C@H](CC(C)C)NC(=O)[C@H](CCCCN)NC(=O)[C@@H](NC(=O)[C@@H](NC(=O)[C@H](CCC(=O)O)NC(=O)[C@H](CCC(=O)O)NC(=O)[C@H](CCSC)NC(=O)[C@H](Cc2c[nH]c3ccccc23)NC(=O)[C@H](CO)NC(=O)[C@@H](N)CC(=O)O)C(C)C)[C@@H](C)CC)CSSC[C@@H]2NC(=O)[C@@H](NC(=O)[C@H](CCCCN)NC(=O)[C@H](CC(N)=O)NC(=O)[C@H](C)NC(=O)[C@H](CC(C)C)NC(=O)[C@H](C)NC(=O)[C@H](CO)NC(=O)[C@H](Cc3ccc(O)cc3)NC(=O)[C@H](CC(C)C)NC(=O)[C@H](CCC(N)=O)NC(=O)c3ccc(-c4c5ccc(=[N+](C)C)cc-5oc5cc(N(C)C)ccc45)c(C(=O)[O-])c3)CSSC[C@H](NC(=O)CNC(=O)[C@H](C(C)C)NC(=O)[C@H](Cc3c[nH]cn3)NC2=O)C(=O)N[C@@H]([C@@H](C)O)C(=O)N[C@@H](CCCCN)C(=O)N[C@@H](CCCNC(=N)N)C(=O)N[C@@H](CO)C(=O)N[C@@H](CC(C)C)C(=O)N[C@@H](C)C(=O)N[C@@H](CCCNC(=N)N)C(=O)N[C@@H](Cc2ccccc2)C(=O)N[C@H](C(=O)O)CSSC[C@@H](C(=O)NCC(=O)N[C@@H](CCSC)C(=O)N[C@@H](CO)C(=O)N[C@H](C(=O)N[C@@H](Cc2c[nH]c3ccccc23)C(=O)N[C@@H](CO)C(=O)O)[C@@H](C)O)NC1=O is recorded as 0.00921 s⁻¹ (Relaxin receptor 1 (RXFP1, Homo sapiens, UniProt Q9HBX9, F76A/Y80A); NanoBRET dissociation; infinite dilution, with: 10 µM relaxin).
For O=c1nc(SCc2ccc(C(F)(F)F)cc2)nc(SCc2csc3ccc(Cl)cc23)[nH]1, “mean decatenated DNA” read 96.4% (TOP2A; decatenation; 7.8 µM).
For Oc1ccc(/C=C/c2cc(O)cc(O)c2)cc1, the cooperativity factor was 97.9 (O-methyltransferase (Sorghum bicolor, UniProt A0A1B6PFV1); ITC two-site model; exothermic site, with: sinefungin).
Under EC50, CCCCc1cn2c(n1)c(N)nc1ccccc12 is recorded as “inactive” (Toll-like receptor 7 (TLR7, Homo sapiens, UniProt Q9NYK1); reporter gene, agonist, NF-κB reporter; HEK-Blue TLR7).
For CC[C@@H]1[C@H](F)C(=O)N[C@@H]1COc1nccc2cc(C(N)=O)c(OC)cc12, the inhibition was 8.5% (Interleukin-1 receptor-associated kinase 1 (IRAK1, Homo sapiens, UniProt P51617); ATP-site probe binding, ActivX profiling; THP-1 cell lysate; 0.04 mM, Lys2 site).
Nc1ncnc2c1ncn2[C@@H]1O[C@H](COP(=O)(O)CP(=O)(O)OP(=O)(O)O)[C@@H](O)[C@H]1O gave a calcium influx of 0% and 0.207% and 0.351% (P2X purinoceptor 1 (P2RX1, Homo sapiens, UniProt P51575, D170A); calcium influx; 316 nM; reference: ionomycin response).
O=S(=O)(O)C1CCNCC1: “normalised MST signal” -0.011 (Sodium- and chloride-dependent taurine transporter (SLC6A6, Homo sapiens, UniProt P31641, Y138A); binding, microscale thermophoresis; 1.95 µM, room temperature, with: 50 nM labelled protein; higher = more binding).
With Nc1nc2c(ncn2[C@@H]2O[C@@H]3COP(=O)(O)O[C@H]4[C@@H](O)[C@H](n5cnc6c(=O)[nH]c(N)nc65)O[C@@H]4COP(=O)(O)O[C@H]3[C@H]2O)c(=O)[nH]1 the -TΔS was -6.7 kcal/mol (Cell cycle histidine kinase CckA, DHp-CA domains (Caulobacter vibrioides, UniProt Q9X688); binding, ITC; 12 °C, with: ADP 5 mM).
The kon of O=C(O)c1cccc(-c2noc(-c3ccccc3F)n2)c1 is reported as 3010 M⁻¹ s⁻¹ (Flavin reductase (NADPH) (BLVRB, Homo sapiens, UniProt P30043)).
